{"data": "Published values of several laboratories", "note": "A part holds a random share of what one study measured."}
{"data": "Sample 1", "target": "Histone acetyltransferase KAT6A, winged helix 2, GST fusion (KAT6A, Homo sapiens, UniProt Q92794, residues 85-181)", "technique": "protein binding microarray", "form": "double-stranded DNA, one strand shown", "sample": "in vitro", "concentration": "not given", "setting": "8-mer, flanks averaged, mean of 2 arrays, mostly near background", "reference": "not given", "reading": "higher = stronger binding", "Target sequence (chain)": "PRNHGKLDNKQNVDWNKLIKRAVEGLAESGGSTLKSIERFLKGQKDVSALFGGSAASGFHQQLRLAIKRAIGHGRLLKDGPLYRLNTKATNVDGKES"}
{"Strand": "ATGTATAG", "E-score": -0.0285}
{"Strand": "AAGAGCCG", "E-score": -0.0195}
{"Strand": "ATGATTGA", "E-score": -0.0441}
{"Strand": "AGAATTTC", "E-score": 0.00594}
{"Strand": "CAACTGTG", "E-score": -0.0175}
{"Strand": "AGCGCTGC", "E-score": 0.0832}
{"Strand": "CAGCACCA", "E-score": -0.0921}
{"Strand": "GAATTATA", "E-score": -0.0118}
{"Strand": "CCCTCCTA", "E-score": -0.083}
{"Strand": "ACTGCCGC", "E-score": 0.279}
{"Strand": "AAAATCTT", "E-score": -0.00549}
{"Strand": "AATCCTAA", "E-score": -0.0725}
{"Strand": "ACCCGTCT", "E-score": -0.106}
{"Strand": "ACGGCCTC", "E-score": 0.0798}
{"Strand": "ATGGCCCC", "E-score": -0.0487}
{"Strand": "AAAACGTT", "E-score": -0.234}
{"Strand": "AGCAATGG", "E-score": 0.0442}
{"Strand": "ACTTACGG", "E-score": -0.118}
{"Strand": "ACCGAGTA", "E-score": -0.0167}
{"data": "Sample 2", "target": "RNA binding protein fox-1 homolog 2, RRM domain, GST-SBP tag (RBFOX2, Homo sapiens, UniProt O43251-10, residues 100-194)", "technique": "RNA Bind-n-Seq", "form": "RNA", "sample": "in vitro", "concentration": "365 nM", "setting": "natural RNA segment, single round, ends assumed", "reference": "no-protein control", "reading": "higher = stronger binding", "Residues (chain)": "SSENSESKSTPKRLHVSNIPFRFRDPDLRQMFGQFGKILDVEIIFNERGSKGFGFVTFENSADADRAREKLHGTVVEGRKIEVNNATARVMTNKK"}
{"Strand": "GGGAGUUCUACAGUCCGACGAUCCAUUUUUUUUUUAUGAUUUGUCUCUGUCACCCUUGUCCUUGAGUGCUCUUGCUAUUAACGUUAUUUGUAAUUUAGUUUGUAGCUCAUUAAAAAAAUGUGCCUAGUUUUAUUGGAAUUCUCGGGUGCCAA", "RBNS enrichment (R)": 0.737}
{"Strand": "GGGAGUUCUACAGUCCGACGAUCAAUUCCGUAUGUUCCUUAGACAUUACCCCCACUUAACCUCCCUUCCUCUGAUAUGCCUUGUAGCUAAGAUUUAAAAGACUGUUGAACAUAGAUGAGGGGUAUGCAUUUCUUGGAAUUCUCGGGUGCCAA", "RBNS enrichment (R)": 1.64}
{"Strand": "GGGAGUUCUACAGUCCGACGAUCAGAUGGUCAAGUUUGUAAAAUAUUUGUUUGUGCUUUUUCCCCCUCCUUACCUGACCCCCUACGAGUUUACAGGUCUGUGGCAAUACUCUUAACCAUAAGAAUUGAAAUGGUGGAAUUCUCGGGUGCCAA", "RBNS enrichment (R)": 1.42}
{"Strand": "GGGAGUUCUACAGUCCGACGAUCGCUUUCCAAAGAAGGACCUAAAACACACCAAGAUUGUCUUCUACAGGAAUUGCUGGGCAGGUCUCCGACUAAAGGUCUUAUGAUGAAAAGGAAGAAACAAGCCCCCAACAUGGAAUUCUCGGGUGCCAA", "RBNS enrichment (R)": 0.31}
{"Strand": "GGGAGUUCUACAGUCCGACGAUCGAGGGACUUCUGUUUACCUUCCGCAGCACCCAGCAUCAAAGGACGGACUUCAGGGGACACGUUUAGUAUAUUAAGACAUGCUGAUGGAAACAGUAUCUUCAAAAAAAUCAUGGAAUUCUCGGGUGCCAA", "RBNS enrichment (R)": 1.14}
{"Strand": "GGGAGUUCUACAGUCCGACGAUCAAGAACAUUUUUAAUUCUUUAGGAAUCUGCAAUGAGUGAUUACAUGCUUGUAAUAGGUAGGCAAUUCCUUGAUUACAGGAAGCUUUUAUAUUACUUGAGUAUUUCUGUCUUGGAAUUCUCGGGUGCCAA", "RBNS enrichment (R)": 0.319}
{"Strand": "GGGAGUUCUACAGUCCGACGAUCCAUUAGUCAUUUUAGUCGAUUCCAACAGGUGAGACUUGCUUUCUACAAAGCAUCCCUUAGAAGUCCAUGCUGGGCAGACAUUGAACACAGUGCCUUAUUAUGUUUCUCCCUGGAAUUCUCGGGUGCCAA", "RBNS enrichment (R)": 0.455}
{"Strand": "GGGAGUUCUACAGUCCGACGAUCAUAUUAACCACAAUCAUCUCUAGAGGAAAGAGUAUUACAACCCAGGCAUGAUCCUCUAUGGACACUAACUUACCCCAUGUCCACCUUUGCCCAAAAACACUGAAACUGUGUGGAAUUCUCGGGUGCCAA", "RBNS enrichment (R)": 3.12}
{"data": "Sample 3", "target": "RING finger protein unkempt homolog, zinc fingers 1-6, GST-SBP tag (UNK, Homo sapiens, UniProt Q9C0B0, residues 30-357)", "technique": "RNA Bind-n-Seq", "form": "RNA", "sample": "in vitro", "concentration": "not given", "setting": "RNA with constant flanks, human and mouse sites, ends assumed", "reference": "input RNA pool", "reading": "higher = stronger binding", "UniProt Q9C0B0, sequence (30-357, looked up)": "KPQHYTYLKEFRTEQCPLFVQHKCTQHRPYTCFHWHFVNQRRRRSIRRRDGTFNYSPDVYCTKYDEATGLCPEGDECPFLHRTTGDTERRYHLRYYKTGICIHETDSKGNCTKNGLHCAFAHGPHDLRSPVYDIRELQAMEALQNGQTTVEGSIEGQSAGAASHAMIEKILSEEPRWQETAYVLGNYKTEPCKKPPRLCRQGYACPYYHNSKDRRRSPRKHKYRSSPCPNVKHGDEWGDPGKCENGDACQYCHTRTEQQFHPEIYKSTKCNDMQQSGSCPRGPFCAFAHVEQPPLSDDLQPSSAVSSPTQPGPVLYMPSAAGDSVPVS"}
{"Strand": "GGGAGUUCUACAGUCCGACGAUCGAGAAUCUGGAACUAAUGUCACAGCAUGGAUGUAAUGCCUGGAAAGUAUACAAUGAAAAUCUAGUUCAUAUGAUUGAACACGCACAGAAGGAACUUCAGAAGUUAAGAAAACAUAUUCAACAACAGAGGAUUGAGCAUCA", "bound/input enrichment": "0.405 ratio"}
{"Strand": "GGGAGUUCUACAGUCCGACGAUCUCAGUCUAGCUUUUAAUUAAGUUAUUUUGUAUAGCUUAAUUUGUAAAACAUUUUAUGUUUUUUAGAUGCUUUAUUAAAUACAUGGCCAAACCAAAUAACAUCUUUCAGUAAUUAUAGAAUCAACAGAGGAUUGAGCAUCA", "bound/input enrichment": "9.15 ratio"}
{"Strand": "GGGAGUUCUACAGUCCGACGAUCGCACUUCUCAAAUACUGGCCAAAGACUCACAGUCCAAAAGAAGUAAUGUUCUUAAAUGAAUUAGAAGAAAUUUUAGAUGUAAUUGAACCAUCAGAGUUUGUGAAGAUCAUGGAGCCUCUUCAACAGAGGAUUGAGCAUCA", "bound/input enrichment": "0.839 ratio"}
{"Strand": "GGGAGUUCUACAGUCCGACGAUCCGGGACGGGCGGCGCCCAUCCUGCGACAGAACACGUUCGGGUUUUGGUUUUGUUUCGUUCACCUCUGUCUAGAUGCAACUUUUGUUCCUCCUCCCCCACCCCCGCCCCCAGCUUCAUGCUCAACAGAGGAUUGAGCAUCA", "bound/input enrichment": "0.783 ratio"}
{"Strand": "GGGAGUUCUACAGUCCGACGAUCAAAAUGAGGGCAAGAAAGGAAAAGGAAAUAAAAGGAGUACAGAAGAAAGGGAGAAGAGAGUCAAGAAGAAAGCAGACAAGAGGAUACAUGAAGUGGCUAUGGGAGAAACAAAAGCCCAAACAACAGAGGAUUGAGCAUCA", "bound/input enrichment": "0.515 ratio"}
{"Strand": "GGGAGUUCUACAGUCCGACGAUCUUGUGGAACACCAUGGUCAUCGGAGGCUAUGCUGAUGGAGAGAGCUUCCUCGGUUAUGUGGACAUGCUUGGUGUAGCCUAUGAAGCCCCUUCGCUGGCCACUGGUUAUGGUGCAUACUUGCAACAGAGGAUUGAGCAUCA", "bound/input enrichment": "0.087 ratio"}
{"Strand": "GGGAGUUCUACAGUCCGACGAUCCUAGAAUGUGAAUUUUACCUCUUAGAAUUAAUGGACUGUUGCUUGAUAGUGUAUCAUCCUUAUAGACCUUUGCUCCAGUAUGUGCAGGACAUGGGCCAGGAAGACGUGCUGCUUCCCCUUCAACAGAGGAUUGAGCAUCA", "bound/input enrichment": "1.91 ratio"}
{"Strand": "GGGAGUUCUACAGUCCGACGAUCAGAAGACCUCAUGAGAGAGGUAAACACCUUUGUAAAGAAUCUGUAACCAAUACCAUGAAGUUCAGGCUGUGAUCUGGGCUCCCUGACUUUCUGAAGCUAGAAAAAUGUUGUGUCUCCCAACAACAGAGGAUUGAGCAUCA", "bound/input enrichment": "0.451 ratio"}
{"data": "Sample 4", "target": "Fragile X messenger ribonucleoprotein 1, C-terminal low-complexity region (Fmr1, Mus musculus, UniProt P35922)", "technique": "RNA Bind-n-Seq", "form": "RNA", "sample": "in vitro", "concentration": "200 nM", "setting": "whole 134-nt RNA, ends assumed", "added": "150 mM LiCl", "reference": "input library", "reading": "higher = stronger binding", "all molecules": "7-deaza-guanosine replaces G"}
{"Strand": "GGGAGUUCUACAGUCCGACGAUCCACAGACAACACGCACCCACACAGACACAGAGGGAAGGGGUUGGGACGGGGACAGGGUGCACAGCAGGGCGGGGUAGGACCCCAGCCCCUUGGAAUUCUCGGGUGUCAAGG", "log2 enrichment": 0.679}
{"Strand": "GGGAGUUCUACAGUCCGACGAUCUCCUGUGCUACACAUCGUAUGUACCGAAUCGGGUUUUUUGGGUUUUUUGGGUUUUUUGGAAAGUAUUAUGUUACGCCGUUCGGAUCUGCAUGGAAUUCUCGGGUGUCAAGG", "log2 enrichment": -0.0247}
{"Strand": "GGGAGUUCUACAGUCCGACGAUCUGGCCCUGGUGGCAUGCGGGGAGGAAGAGGUGGCCUCUUGGAUCGUGGUGGUCCCGGUGGAAUGUUCAGAGGUGGCCGUGGUGGAGACAGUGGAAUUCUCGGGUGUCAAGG", "log2 enrichment": -0.186}
{"Strand": "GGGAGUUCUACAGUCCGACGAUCUGGGAGACGAUCGCGAUGAACACGGUGCUGUCGCGGGCGAACUCACUGUUCGCCUUCUCGCUGAGCGUGAUGGCGGCGCUCACCUUCGGCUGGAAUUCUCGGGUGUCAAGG", "log2 enrichment": -3.01}
{"Strand": "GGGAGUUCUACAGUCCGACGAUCUCCUCAAGUCCUGUGCUACACAUCGUAUGUACCGAAUCGGUGGAGGAAAGGAAAGUAUUAUGUUACGCCGUUCGGAUCUGCACUUCCAGCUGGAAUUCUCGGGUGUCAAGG", "log2 enrichment": -0.241}
{"Strand": "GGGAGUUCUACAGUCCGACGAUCUUAAGAAUUUGCUUAAAGAAGUGCGGAUCUAUGCACAGAAAUUUAUUGAUCGAGGAAAGGAUUUUAACUUGGAGUUGGCAAUUAAAACACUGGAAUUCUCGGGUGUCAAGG", "log2 enrichment": -0.481}
{"Strand": "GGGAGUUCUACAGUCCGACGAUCUGGGAGGUGGAUUUUGUUUAUUUUUAUAGCUCAUUUCCAGGGGUGGGAAUUUUUUUUUAAUAUGUGUCAUGAAUAAAGUUGUUUUUGAAAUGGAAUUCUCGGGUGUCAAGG", "log2 enrichment": 0.128}
{"Strand": "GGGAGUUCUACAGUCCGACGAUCAGUCCUGUGCUACACAUCGUAUGUACCGAAUCGGGAGGGUUUUUGGGAAAAAAAGGGAAAGUAUUAUGUUACGCCGUUCGGAUCUGCACUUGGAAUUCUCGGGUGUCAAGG", "log2 enrichment": -1.59}
{"note": "A few entries again (sample 1):"}
{"Strand": "ATGGCCCC", "E-score": -0.0487}
{"Strand": "ATGTATAG", "E-score": -0.0285}
{"Strand": "AAAATCTT", "E-score": -0.00549}
{"Strand": "AGCAATGG", "E-score": 0.0442}
{"Strand": "CAACTGTG", "E-score": -0.0175}
{"Strand": "AAAACGTT", "E-score": -0.234}
{"Strand": "AGCGCTGC", "E-score": 0.0832}
